Assay results gathered from unrelated publications.
Each line is one published result; not all experiments were run side by side. ± marks the error that the study gave.

| SMILES | target or system | assay | test system | conditions | scale | quantity | value |
| --- | --- | --- | --- | --- | --- | --- | --- |
| O=C(NS(=O)(=O)c1ccc(NC[C@H]2COCCO2)c([N+](=O)[O-])c1)c1ccc(N2CCN(CC3=C(c4ccc(Cl)cc4)CC4(CCC4)CC3)CC2)cc1Oc1cnc2[nH]ccc2c1 |  |  | relapsed or refractory CLL/SLL patients | dose not given, trial |  | objective response rate | 63.6% |
| CCCCCn1cc(C(=O)c2ccc(CC)c3ccccc23)c2ccccc21 |  | handling reactivity, functional observational battery | ICR mice, male | iv | baseline: vehicle | lowest dose with significant effect | 0.3 to 3 mg/kg |
| COC(=O)[C@H]1[C@@H](OC(=O)c2ccccc2)C[C@@H]2CC[C@H]1N2C |  | in vivo microdialysis | rat, nucleus accumbens shell | intraperitoneal, 10.0 mg/kg, 0 to 30 min after dosing, mean over place-conditioning session | baseline: baseline | extracellular dopamine level | 281% |
| NC(=O)C[S+]([O-])C(c1ccccc1)c1ccccc1 (racemic) |  |  | mouse, C57BL/6, female, EAE | dose not given, day 24, with: noxious paw pressure | baseline: vehicle | audible vocalisation duration | inhibited |
| CCCCCc1cc(O)c2c(c1)OC(C)(C)[C@@H]1CCC(C)=C[C@@H]21 |  | hypothermia | ICR mice, male, rectal temperature | intraperitoneal |  | ED50 | 5.21 mg/kg |
| CN1C(=O)CC(=O)N(c2ccccc2)c2cc(Cl)ccc21 |  | hyperthermia-induced seizures | Scn1a+/- mouse | intraperitoneal, 5 mg/kg |  | seizure-free animals | 92% |
| CN[C@@](C)(C[18F])C(=O)O | A549 tumour model |  | host not given, muscle | 30 min, tumour-bearing |  | tracer uptake | 1.2 %ID/g |
| CCC[C@@H](C(=O)c1ccccc1)N1CCCC1 |  | locomotor activity and stereotypy | male Sprague-Dawley rat | intravenous | baseline: compound over R-α-PVP | potency ratio | ≥ 30 fold |
| CCCCn1cc(C(=O)c2cccc3ccccc23)c2ccccc21 |  | handling reactivity, functional observational battery | ICR mice, male | iv | baseline: vehicle | lowest dose with significant effect | 1 to 3 mg/kg |
| CN1CC[C@]23c4c5ccc(O)c4O[C@H]2[C@@H](O)C=C[C@H]3[C@H]1C5 |  | Hargreaves test | rat, carrageenan paw inflammation | 1 mg/kg, 10 min |  | paw withdrawal latency | 12.9 ± 1.38 s |
| CCCCCn1cc(C(=O)c2ccc(OC)cc2)c2ccccc21 |  |  | male ND4 Swiss-Webster mice | intraperitoneal, 5 and 10 mg/kg |  | onset of locomotor depression | ≤ 20 min |
| CCCCCn1cc(C(=O)Cc2ccccc2)c2ccccc21 |  | handling reactivity, functional observational battery | ICR mice, male | iv | baseline: vehicle | lowest dose with significant effect | 3 to 30 mg/kg |
| CNC(C)Cc1ccc2c(c1)OCO2 (racemic) |  | visual analog scale, measured: Loving | human | oral, 1.5 mg/kg, mean over session, unit not given | baseline: pre-dose baseline | mood rating | 28.6 |
| NC1(c2ccccc2Cl)CCC=CC1=O (centres unmarked) |  | metabolite formation, metabolite | pooled human liver microsomes | 30 min, 37 °C, with: (S)-norketamine substrate |  | Vmax | 437 pmol/min/mg protein |
| CCCCCCC(C)(C)c1cc(O)c2c(c1)OC(C)(C)c1cnn(CC)c1-2 |  |  | rat, hypertonic saline masseter pain model | ip, 1 and 3 mg/kg, 30 min pretreatment, with: hypertonic saline | baseline: vehicle | paw shaking nociceptive behaviour | decreased |
| CCCCCn1nc(C(=O)NC(C(N)=O)C(C)(C)C)c2ccccc21 (centres unmarked) |  |  | male ND4 Swiss-Webster mice | intraperitoneal, 0.25 to 1 mg/kg |  | onset of locomotor depression | ≤ 10 min |
| COc1ccc2cc3[n+](cc2c1OC)CCc1cc2c(cc1-3)OCO2 |  |  | rat, STZ-induced diabetic, liver | oral, 12 mg/kg, day 28 |  | catalase activity | 33 ± 1.21 U/mg protein |
| CCCCCn1cc(C(=O)c2ccc(CC)c3ccccc23)c2ccccc21 |  |  | male ND4 Swiss-Webster mice | intraperitoneal, 1 to 10 mg/kg |  | onset of locomotor depression | ≤ 30 min |
| CCC1(c2ccccc2)C(=O)NC(=O)NC1=O |  | hind limb tonic extension | albino mouse, MES-induced seizure | ip, 0.5 h |  | minimal effective dose | 30 mg/kg |
| COC(=O)[C@H]1[C@@H](OC(=O)c2ccccc2)C[C@@H]2CC[C@H]1N2C |  | drug discrimination | Swiss Webster mice | ip, 0.3 to 20 mg/kg, trained 10 mg/kg vs saline |  | drug-lever responding maximum | > 80% |
